Measurements from different studies.
Every numbered part comes from another study and shows a few of its results, in no order.

Series 1
Target: Max-binding protein MNT, bHLH-zipper, MAX partner unstated (MNT, Homo sapiens, UniProt Q99583, residues 220-300)
Method: protein-binding microarray
Form: double-stranded DNA, one strand shown
Medium: in vitro
Concentration: not given
Notes: k-mer, scored over probes, only values ≥0.25
Direction: higher = stronger binding
Target sequence (chain): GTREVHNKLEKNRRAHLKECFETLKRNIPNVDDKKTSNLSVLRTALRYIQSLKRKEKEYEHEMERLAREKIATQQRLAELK
`GCGTGGAC` has an E-score of 0.378.
`CACGAGCC` has an E-score of 0.266.
With `CACCGTGC` the E-score was 0.27.
For `GACCCGCC`, the E-score was 0.294.
For `CCCCAAGC`, the E-score was 0.29.
`CCTCCCCA` has an E-score of 0.391.
`AATCCACG` gave an E-score of 0.291.
For `GTGTGCAA`, the E-score was 0.257.

Series 2
Target: PABPC1L2, full length, GST fusion (mouse, UniProt A0ABA7IW68)
Method: RNAcompete
Form: RNA
Medium: in vitro
Concentration: 20 nM
Notes: 7-mer, probes averaged, single round
Baseline: mean of 7-mers
Direction: higher = stronger binding
Construct (chain): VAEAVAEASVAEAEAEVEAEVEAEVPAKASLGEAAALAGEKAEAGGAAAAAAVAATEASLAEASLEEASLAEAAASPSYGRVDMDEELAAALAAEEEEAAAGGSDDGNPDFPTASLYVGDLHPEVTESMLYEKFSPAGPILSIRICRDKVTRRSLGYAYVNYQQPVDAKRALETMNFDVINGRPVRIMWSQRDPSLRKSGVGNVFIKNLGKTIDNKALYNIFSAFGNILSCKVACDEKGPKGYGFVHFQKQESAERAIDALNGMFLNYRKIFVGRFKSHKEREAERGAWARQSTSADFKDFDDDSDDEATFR
`UUUGCGC` has a 7-mer Z-score of -0.44.
`GACAAGA` gave a 7-mer Z-score of 0.338.
The 7-mer Z-score of `CGUUGGC` is reported as -0.233.
For `GAACAUA`, the 7-mer Z-score was 0.213.
For `AGAUCUU`, the 7-mer Z-score was -0.331.
The 7-mer Z-score of `CCGAGAU` is reported as -0.128.
`CAAAAAG` gave a 7-mer Z-score of 19.2.
`CACCACC` gave a 7-mer Z-score of -0.177.

Series 3
Target: Transcription factor SOX-2, HMG box (Sox2, Mus musculus, UniProt P48432, residues 41-119)
UniProt P48432, sequence (41-119, looked up): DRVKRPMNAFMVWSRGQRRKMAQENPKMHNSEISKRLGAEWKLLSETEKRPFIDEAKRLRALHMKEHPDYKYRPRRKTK
Method: Spec-seq
Form: double-stranded DNA, one strand shown
Medium: in vitro
Concentration: not given
Notes: whole probe, mean of replicates
Baseline: not given
Direction: lower = stronger binding
All sequences stand within: GAGTCGTCTCGTCAGCACC … CCGTAGAGCACTCAGGTC
`ACAGTT` — result for “relative binding energy”: 0.0214 ln ratio.
`ATCTGT`: “relative binding energy” 0.315 ln ratio.
Under “relative binding energy”, `ATCAGA` is recorded as 0.429 ln ratio.
`TTGGTT` — result for “relative binding energy”: 0.506 ln ratio.
`GTAGTT` — result for “relative binding energy”: 0.639 ln ratio.
For `ATTATG`, “relative binding energy” read -1.64 ln ratio.
`ATAATG`: “relative binding energy” -1.5 ln ratio.
For `ATCCGC`, “relative binding energy” read 1.01 ln ratio.

Other studies, line by line
The nuclei count of Cc1ncc(C[n+]2csc(CCO)c2C)c(N)n1 is reported as 1.38 z-score (mouse MPNST tumor cells; high-content nuclear imaging, refers to: cell number; 10 µM, 12 h, mean of 2 replicates; baseline: plate mean, higher = more cells).
